Assay results from different studies.
Each numbered part is a random draw from the data of one study; scales do not carry over between parts.

Study 1 — technique: protein binding microarray; molecule type: double-stranded DNA, one strand shown; matrix: in vitro; concentration: not given; reference: not given; direction: higher = stronger binding
Target: Histone acetyltransferase KAT6A, winged helix 1, GST fusion (KAT6A, Homo sapiens, UniProt Q92794, residues 1-85)
Notes: 8-mer, flanks averaged, mean of 2 arrays, mostly near background
Residues (chain): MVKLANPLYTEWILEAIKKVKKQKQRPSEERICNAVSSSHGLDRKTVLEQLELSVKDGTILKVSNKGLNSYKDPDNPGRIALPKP
With `ACAGTTCG` the E-score was 0.117.
With `AAGACCGC` the E-score was 0.217.
`TTATATAA` has an E-score of -0.0505.
For `AAGTCTGC`, the E-score was -0.163.
With `CAGGCCTC` the E-score was 0.0362.
`CACCGCCG` has an E-score of 0.437.
`CCCACCCA` has an E-score of -0.234.
The E-score of `CAGAAACC` is reported as -0.146.
`GCAAACGA` gave an E-score of -0.151.
With `AACAGTGG` the E-score was -0.226.
With `AGCTGTCA` the E-score was -0.32.
The E-score of `CGCGTTGC` is reported as 0.269.
`CGGTTTAG` has an E-score of 0.0689.
With `ATGGTCGC` the E-score was 0.169.
With `CCAACAGC` the E-score was -0.0747.
For `CAACCAGG`, the E-score was -0.225.
`CTACACAC` gave an E-score of -0.0939.
With `AGCGGCGA` the E-score was 0.34.
The E-score of `AGTAACAG` is reported as -0.0372.
`TCGCGCCA` gave an E-score of 0.234.
For `TCTGAGCA`, the E-score was -0.247.
`AGTCGGGC` gave an E-score of 0.133.
The E-score of `GAGCGACA` is reported as -0.0609.
The E-score of `AAACCGTG` is reported as -0.0492.

Study 2 — technique: RNA Bind-n-Seq; molecule type: RNA; matrix: in vitro; concentration: 200 nM; notes: whole 134-nt RNA, ends assumed; with: 150 mM KCl; reference: input library; direction: higher = stronger binding
Target: Ras GTPase-activating protein-binding protein 1, full length (G3BP1, Homo sapiens, UniProt Q13283)
Sequence of UniProt Q13283 (whole entry, looked up): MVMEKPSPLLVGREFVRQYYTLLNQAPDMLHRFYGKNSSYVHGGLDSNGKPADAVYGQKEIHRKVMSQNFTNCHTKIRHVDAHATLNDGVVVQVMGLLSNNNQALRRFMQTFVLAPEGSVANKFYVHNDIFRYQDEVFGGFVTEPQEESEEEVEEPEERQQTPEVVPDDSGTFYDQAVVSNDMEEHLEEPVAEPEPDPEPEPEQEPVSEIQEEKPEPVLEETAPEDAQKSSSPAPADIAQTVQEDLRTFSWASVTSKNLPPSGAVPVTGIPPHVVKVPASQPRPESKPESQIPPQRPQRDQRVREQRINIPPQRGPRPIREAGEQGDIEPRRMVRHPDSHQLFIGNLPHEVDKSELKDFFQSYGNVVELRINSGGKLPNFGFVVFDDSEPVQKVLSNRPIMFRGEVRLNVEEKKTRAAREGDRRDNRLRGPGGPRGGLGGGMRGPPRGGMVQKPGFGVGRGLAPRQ
`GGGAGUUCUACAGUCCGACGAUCUGGCCCUGGUGGCAUGCGGGGAGGAAGGGGUGGCCUCAUGGAUCGUGGUGGUCCCGGUGGAAUGUUCAGAGGUGGCCGUGGUGGAGACAGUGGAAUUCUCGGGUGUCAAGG` has a log2 enrichment of 0.874.
The log2 enrichment of `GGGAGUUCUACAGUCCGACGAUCUGGCCCUGGUGGCAUGCGGGGAGGAAGAGUUGGCCUCAUGGAUCGUGGUGGUCCCGGUGGAAUGUUCAGAGGUGGCCGUGGUGGAGACAGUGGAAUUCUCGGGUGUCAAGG` is reported as 0.044.
With `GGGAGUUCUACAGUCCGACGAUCCCUGUGCUACACAUCGUAUGUACCGAAUCGGGGAAAGGGGAAAAAGGGGUUUUUUUGGGGAAAGUAUUAUGUUACGCCGUUCGGAUCUGCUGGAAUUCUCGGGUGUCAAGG` the log2 enrichment was 0.29.
The log2 enrichment of `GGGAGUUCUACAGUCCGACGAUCAGUCCUGUGCUACACAUCGUAUGUACCGAAUCGGGUUUUGGGGUUUUGGGGUUUUGGGAAAGUAUUAUGUUACGCCGUUCGGAUCUGCACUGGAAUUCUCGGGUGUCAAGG` is reported as -0.0378.
For `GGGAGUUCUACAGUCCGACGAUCGUCCUGUGCUACACAUCGUAUGUACCGAAUCGGGAGGGUUUUUUUGGGAAAAAAAGGGAAAGUAUUAUGUUACGCCGUUCGGAUCUGCACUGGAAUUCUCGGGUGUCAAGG`, the log2 enrichment was -0.418.
With `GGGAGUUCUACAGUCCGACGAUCUCCUUUUUUUUUUUCUUUGAAUGUAUUUAUUUCUUGUAGUCUACUGGUGCUGUUGUGACGGAGAGCCAGACGUACAAAAACCGAGCUGGUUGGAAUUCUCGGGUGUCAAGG` the log2 enrichment was 0.465.
`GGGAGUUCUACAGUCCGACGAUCUCUCCCAUCAAAGGACGUGCACAGCCUUAUGAUCCCAAUUUUUACGAUGAAACCUAUGAUUAUGGUGGUUUUACAAUGAUGUUUGAUGACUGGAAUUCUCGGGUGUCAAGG` has a log2 enrichment of 1.72.
`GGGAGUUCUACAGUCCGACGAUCCCUGUGCUACACAUCGUAUGUACCGAAUCGGGUUUUUUUGGUUUUUUUGGGUUUUUUUGGGAAAGUAUUAUGUUACGCCGUUCGGAUCUGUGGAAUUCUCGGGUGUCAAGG` has a log2 enrichment of -1.09.
The log2 enrichment of `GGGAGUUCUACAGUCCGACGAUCGGCAGGAGGAAGAGCGCAGGCGCCGUGAAGAAGAGAUGCGGCGGCAGCAAGAAGAAAUGAUGCGGCGACAGCAGGAAGGAUUCAAGGGAAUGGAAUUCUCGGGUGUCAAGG` is reported as 0.909.
With `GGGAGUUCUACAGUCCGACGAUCGUCCUGUGCUACACAUCGUAUGUACCGAAUCGGGAAAAAGGGGAAAAAGGAAAAAGGGGAAAGUAUUAUGUUACGCCGUUCGGAUCUGCAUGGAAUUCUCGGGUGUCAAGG` the log2 enrichment was -0.283.

Study 3 — technique: RNA Bind-n-Seq; molecule type: RNA; matrix: in vitro; concentration: 100 nM; reference: input RNA pool; direction: higher = stronger binding
Target: RING finger protein unkempt homolog, zinc fingers 1-6, SBP tag (UNK, Homo sapiens, UniProt Q9C0B0, residues 30-357)
Sequence of UniProt Q9C0B0 (30-357, looked up): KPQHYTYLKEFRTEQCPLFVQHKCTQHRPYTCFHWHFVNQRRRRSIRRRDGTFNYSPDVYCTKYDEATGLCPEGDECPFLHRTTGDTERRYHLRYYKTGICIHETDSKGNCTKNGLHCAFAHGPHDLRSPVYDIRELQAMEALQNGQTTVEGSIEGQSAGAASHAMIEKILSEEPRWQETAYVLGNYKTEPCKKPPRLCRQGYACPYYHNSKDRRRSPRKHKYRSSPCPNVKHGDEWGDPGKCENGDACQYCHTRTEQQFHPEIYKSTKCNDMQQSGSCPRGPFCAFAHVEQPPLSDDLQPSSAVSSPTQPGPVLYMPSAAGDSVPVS
Notes: RNA with constant flanks, vertebrate orthologous sites, ends assumed
The bound/input enrichment of `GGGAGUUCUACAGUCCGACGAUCAUCUCUCAUGUUAUAGAUUCAAAAGUGUCAUUUAAUUUUUAACGAAUUACUGGUUUUAAUUAAUUAGCUCUGCUUGGUCUUAUGGUUCACCUCCAGCAGAUACAGGUCUGAAUUACUACACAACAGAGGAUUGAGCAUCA` is reported as 0.606 ratio.
With `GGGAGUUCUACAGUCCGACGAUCUUUUAUUGGAUCAGGUCUGUAAAUGUGUACUAAAAAAUCAGAGUUUAUUUAUAAACAGAAUAGUUUAUUUAAAGAGAAGUUCCUCAUUGAUAUUGUGAUAUGCAUUAAUUCCAUUUGUUACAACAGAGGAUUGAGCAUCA` the bound/input enrichment was 0.271 ratio.
With `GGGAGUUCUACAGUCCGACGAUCCUACUAUAAACAACUCAGGGCAGUAUUCUCGAUAUCCUUACAGUAACCUAAAUCAGGGAUUAGUUAACAAUACAGGGAUGAAUCAAAAUUUAGGCCUUACGAAUAAUACCCCAAUGAAUCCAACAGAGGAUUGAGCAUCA` the bound/input enrichment was 1.63 ratio.
`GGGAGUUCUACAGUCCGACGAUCCAUGUCCCUGUUACUGUGACAUUUAAAGUAUCCACAGUGCUCACUUUUUCCAAAUGAUUCUAGUAAUUGCCUAGAAAUAUAUUUCUCUUACCUGUUAUUUAUCAAUUUCCCCCCAGUAUUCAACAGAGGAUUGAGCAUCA` has a bound/input enrichment of 1.63 ratio.
With `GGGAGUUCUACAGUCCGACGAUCCUCUUUUUGCCUUUUUAUCGCCUCAGUGAGGUAAAGACUCCCCUUGAACAUUUUUUUCAGUACUGUAGCCUGAUAUUCUUAACAGACUAUCUCAUUCCCUACAUUGUCAUGAUUUUACUACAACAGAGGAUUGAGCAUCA` the bound/input enrichment was 0.574 ratio.
With `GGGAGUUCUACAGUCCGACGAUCGACUGGAUGCCGUAUAUACCGCACCCAAGGCAGUGACUUCCACUUUCUACACGUUGUUAGUUUAAAGUCAUCUCUUAUUUCAGCGUCUAGACUGGAUUGUUAGUGCUACUACUCUUUGUACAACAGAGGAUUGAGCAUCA` the bound/input enrichment was 0.355 ratio.
With `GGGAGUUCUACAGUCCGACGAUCUUGGGACCAGCUCUCUGAAUAGGAAUAGUAGUAAAAAAAACAAGCAAAAUGAUAUUUGUAUAGAAAAAACAGAAGUCAAAUCAUGUAAAGUAAAUGUUGCCAGUGUUCCAGGCCCUAAAGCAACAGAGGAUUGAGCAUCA` the bound/input enrichment was 1.15 ratio.
`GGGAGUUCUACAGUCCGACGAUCGAUAUUAAAUAGUAUUAAAAAUUUUCAUCUUCCUUUACCUUUUAUCCCCUACCUAAUACCUAGUCUACUUUUUUAAAUUUCAGACUUCACUGCUCUUUGAAUCGAUAAUUCCAAUUUUCACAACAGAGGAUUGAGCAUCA` has a bound/input enrichment of 3.83 ratio.

Study 4 — technique: RNA Bind-n-Seq; molecule type: RNA; matrix: in vitro; concentration: 365 nM; reference: no-protein control; direction: higher = stronger binding
Target: RNA binding protein fox-1 homolog 2, RRM domain, GST-SBP tag (RBFOX2, Homo sapiens, UniProt O43251-10, residues 100-194)
Notes: natural RNA segment, single round, ends assumed
Construct (chain): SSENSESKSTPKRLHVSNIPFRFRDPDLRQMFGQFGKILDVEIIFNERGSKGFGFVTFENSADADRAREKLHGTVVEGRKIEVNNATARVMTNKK
Under “RBNS enrichment (R)”, `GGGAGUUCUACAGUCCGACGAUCAAGCCUAGAGGAGUCAGGAGCAGGGACUUUGACUCUUAGGAAGAGCACACAUGAGGGCAAGGCUGCUGGCAGACGUCUCCAUUGUCCUUAUGUUGUCUGUGUUGUAUUUUUGGAAUUCUCGGGUGCCAA` is recorded as 1.02.
For `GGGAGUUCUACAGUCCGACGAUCGCAUUGAUCUAACCUUUUUCCCCCCCAUUUCAGUUGCAGUUUUUGUAGAAUGGCUUUUUCUUUUUCCUCUUAAGAGUUCUAUUCUUCAGGUAGAUAAUUUUUCAAAUGUGUGGAAUUCUCGGGUGCCAA`, “RBNS enrichment (R)” read 1.2.
Under “RBNS enrichment (R)”, `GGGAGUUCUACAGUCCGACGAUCUCUGAUGUCACCAAUUCAGGAAAACGAGUCCUCUCCUAGGACUAUCCCCGGUUCUGGAAAUCAUGUUCUCCUCACUCAUGGUGACAAGCUAAGAAAGCUGAACAAAGGGAUGGAAUUCUCGGGUGCCAA` is recorded as 0.313.
`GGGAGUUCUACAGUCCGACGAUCAGGCUUGUGGGUGAUUCCCCGGGCCUUUUCAUUCAAGCUGCACACAAUGAGUCAUUAAAGUUUGUCAAGAAGUUGGUGACCUUAUGCUUGCUUCCAUGCCUGGCCUGGGGUGGAAUUCUCGGGUGCCAA`: “RBNS enrichment (R)” 0.428.
`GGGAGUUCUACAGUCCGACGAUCUUUAUUGUGCUGUUACUCUGUCGAGUGGCUAUUAAAAUUGUCUUAUGCUCUUUGGGCUAAGAGGGGAUCAUCUCGCUUAAGAUGUACUCCUGAUGUAAACAUUUCCCCCAUGGAAUUCUCGGGUGCCAA` — result for “RBNS enrichment (R)”: 0.316.
`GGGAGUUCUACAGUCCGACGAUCAGAGGAGCUCAAAGUUUGUGUGUAUUAAUAUGAAUUAGCUAACGUGAACUAUGUUUUGGAAAGUUACAACUACUUUUACAUUAAGGAUGAGAAACUGGAGUGUUUUUGAUUGGAAUUCUCGGGUGCCAA`: “RBNS enrichment (R)” 0.906.
For `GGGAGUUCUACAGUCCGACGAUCUUUGUGCAUCCUACAGUGAGGAGUAACUGAUCAGGUGUCUAUAACAUUUUUCAUUCUCUCUGGAAACAGACUCAGGUUUCUUUGGACCAAAUCCAAAAGAACACAUAGCUUGGAAUUCUCGGGUGCCAA`, “RBNS enrichment (R)” read 0.329.
Under “RBNS enrichment (R)”, `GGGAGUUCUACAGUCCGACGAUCUGAAGAGAAGCAGCAGAAGCCACAUUCAAGUGAGAGCACAAGUGCUCUGUGGAAAGGCAGUAUCUCUGGUGGGGACGCUGGUCCACAUCGGCCUCUGCUUGUACAUCCAUUGGAAUUCUCGGGUGCCAA` is recorded as 0.263.
For `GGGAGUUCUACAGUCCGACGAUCACAGCAGCAAGUGCCCUUCUCCGGCCUGCAGCCUCCCCCAGGGUGGAAGCCGUGGGGUCCCUCAGGCCUGGGCGGUGCAGCUUCCAGAGAGCGAGCGCCCUUUAGCGGCCUGGAAUUCUCGGGUGCCAA`, “RBNS enrichment (R)” read 0.157.

Excerpt of the above (study 1):
With `ATGGTCGC` the E-score was 0.169.
With `AGCTGTCA` the E-score was -0.32.
With `ACAGTTCG` the E-score was 0.117.
The E-score of `AAACCGTG` is reported as -0.0492.
